{"data": "Measurements gathered from unrelated publications", "Ryanodine receptor 1": "Ryanodine receptor 1 (Oncorhynchus mykiss, UniProt A0A8C7UX14)", "CNR1": "Cannabinoid receptor 1 (CNR1, Homo sapiens, UniProt P21554)", "KCNMA1 with beta-3 subunit": "Calcium-activated potassium channel subunit alpha-1, with beta-3 subunit (KCNMA1, Homo sapiens, UniProt Q12791)", "note": "Compare with care: the assays were run in different laboratories. ± marks the error that the study gave. The star is where a group is joined."}
{"Molecule": "CC[C@H](C)[C@H](NC(=O)[C@H](C)NC(=O)[C@H](CCC(=O)O)NC(C)=O)C(=O)N[C@H](C(=O)N[C@@H](CCCNC(=N)N)C(=O)N[C@H](C(=O)N[C@@H](CC(C)C)C(=O)N[C@@H](CCC(N)=O)C(=O)N[C@@H](CCC(N)=O)C(=O)N[C@@H](CC(C)C)C(=O)N[C@@H](CC(C)C)C(=O)N[C@@H](Cc1ccccc1)C(=O)N[C@H](C(=O)N[C@@H](Cc1c[nH]cn1)C(=O)N[C@@H](Cc1ccccc1)C(=O)N[C@@H](CCCNC(=N)N)C(=O)N[C@H](C(=O)NCC(=O)N[C@@H](CCCNC(=N)N)C(=O)N[C@@H](CCCNC(=N)N)C(=O)N[C@@H](CCCNC(=N)N)C(=O)N[C@@H](CCCNC(=N)N)C(=O)N[C@@H](CCCNC(=N)N)C(=O)N[C@@H](CCCNC(=N)N)C(=O)N[C@@H](CCCNC(=N)N)C(=O)N[C@@H](CCCNC(=N)N)C(N)=O)[C@@H](C)CC)[C@@H](C)CC)[C@@H](C)CC)[C@@H](C)CC", "target": "HIV-1 integrase and DNA substrate", "assay": "DNA binding, gel retardation", "setting": "2 h, 37 °C, together with: radiolabelled oligonucleotide DNA", "endpoint": "minimum DNA retardation concentration", "value": "4 µM"}
{"Molecule": "CC(C)Cc1ccc(NC(=O)Oc2ccc3c(c2)[C@]2(C)CCN[C@@H]2N3)cc1", "target": "Cholinesterase (BCHE, Homo sapiens, UniProt P06276)", "assay": "inhibitor, immobilized enzyme reactor, HPLC-UV", "test system": "immobilized recombinant human enzyme", "setting": "concentration not given, flushing after complete inhibition", "endpoint": "time to full activity recovery", "value": "16 h"}
{"Molecule": "Clc1ccc(-c2cc(Cl)c(Cl)cc2Cl)c(Cl)c1", "target": "Ryanodine receptor 1", "assay": "[3H]ryanodine binding", "test system": "rainbow trout, skeletal muscle microsomes", "setting": "up to 20 µM", "scale": "reference: DMSO", "endpoint": "Emax", "value": "136 ± 5.66%"}
{"Molecule": "O=C(Cc1cccc(Cl)c1)NC1CCOC1=O (stereo not drawn)", "target": "HTH-type quorum-sensing regulator RhlR (rhlR, Pseudomonas aeruginosa, UniProt P54292)", "assay": "reporter gene, agonist", "test system": "Escherichia coli reporter strain", "setting": "100 µM", "scale": "reference: BHL 900 µM", "endpoint": "activation", "value": "82%"}
{"Molecule": "anthraquinone-neomycin", "target": "poly(dA)•2poly(dT) DNA triplex", "assay": "DNA binding, UV thermal denaturation", "setting": "concentration not given", "endpoint": "binding site size", "value": "7.5 base triplets"}
{"Molecule": "CC(F)(F)CCCn1nc(C(=O)NC(C)(C)c2cccc(C(N)=O)c2)c2ccccc21", "target": "CNR1", "assay": "calcium mobilization, agonist", "test system": "CHO-K1 expressing Gαq16", "scale": "reference: CP55,940 maximum", "endpoint": "Emax", "value": "47 ± 3%"}
{"Molecule": "HSGTESQAKHCIPEKNHTLQ", "target": "Tyrosine-protein phosphatase non-receptor type 22 (PTPN22, Homo sapiens, UniProt Q9Y2R2)", "assay": "enzyme activity", "test system": "peptide", "setting": "25 nM, pH 6.0, together with: DiFMUP", "endpoint": "kcat", "value": "5.2 ± 0.1 s⁻¹"}
{"Molecule": "O=C(c1ccc(-n2nc(C(F)(F)F)c3c2CCCC3)cc1)N1CCCC1", "target": "receptors, ion channels, transporters", "assay": "CEREP panel", "setting": "concentration not given", "endpoint": "binding", "value": "no binding"}
{"Molecule": "NC(=O)CN1CCC[C@@H](CNC(=O)c2nn(Cc3ccc(F)cc3)c3ccccc23)C1", "target": "CNR1", "assay": "calcium mobilization, agonist", "test system": "CHO-K1 expressing Gαq16", "scale": "reference: CP55,940 maximum", "endpoint": "Emax", "value": "109 ± 3%"}
{"Molecule": "O=c1c(I)ccc2n1C[C@@H]1CNC[C@H]2C1", "target": "α4β2* nAChR, mouse", "test system": "DBA/2J mice, hippocampus membranes", "setting": "intravenous infusion, 0.2 mg/kg/h, 7 days", "scale": "reference: saline", "endpoint": "increase in binding sites", "value": "96.1 ± 12.1%"}
{"Molecule": "BIM", "target": "Bcl-2-like protein 1 (BCL2L1, Homo sapiens, UniProt Q07817)", "assay": "bacterial surface display flow cytometry", "setting": "value is labelling concentration", "endpoint": "approximate KD", "value": "~10 nM"}
{"Molecule": "Cc1ccc(Nc2ccc3c(c2)C(c2ccccc2F)=NC(C)C(=O)N3)c(C)c1 (stereo not drawn)", "target": "Alpha-2C adrenergic receptor (ADRA2C, Homo sapiens, UniProt P18825)", "assay": "ligand displacement, radioligand", "setting": "10 µM", "endpoint": "inhibition", "value": "5%"}
{"Molecule": "O=S(=O)(O)Oc1ccc(-c2ccc(Cl)cc2)cc1", "target": "sulfatase, human liver microsomes", "assay": "substrate", "setting": "pH 7.4, 37 °C", "endpoint": "Vmax", "value": "16.8 ± 3.8 nmol/min/mg"}
{"Molecule": "Ac-LDEVD-pNA (N-acetyl, C-pNA; pNA = O=[N+]([O-])c1ccc(N*)cc1)", "target": "Caspase-8 (CASP8, Homo sapiens, UniProt Q14790)", "assay": "substrate hydrolysis, substrate, colorimetric", "setting": "pH 7.5", "endpoint": "kcat", "value": "0.15 ± 0.0167 s⁻¹"}
{"Molecule": "O=[P@]1(S)OC[C@H]2O[C@@H](n3cnc4cc(Cl)c(Cl)cc43)[C@H](O)[C@@H]2O1", "target": "cAMP-dependent protein kinase type II-beta regulatory subunit, holoenzyme with catalytic subunit (Prkar2b, Rattus norvegicus, UniProt P12369, S112A)", "assay": "PKA holoenzyme activation, activator, fluorescence anisotropy", "scale": "reference: RIIβ over RIα, higher = RIIβ-selective", "endpoint": "selectivity ratio", "value": 2.1}
{"Molecule": "C[C@H]1CCCC(=O)CCC/C=C/c2cc(O)cc(O)c2C(=O)O1", "target": "zhd101 (Clonostachys rosea, UniProt Q8NKB0, M154H)", "assay": "substrate, HPLC", "setting": "10 min, pH 5.5, 37 °C, 1% acetonitrile", "endpoint": "Km", "value": "11.7 ± 1.23 mM"}
{"Molecule": "Clc1ccc(Cl)c(-c2cc(Cl)ccc2Cl)c1", "target": "Ryanodine receptor 1", "assay": "[3H]ryanodine binding", "test system": "rainbow trout, skeletal muscle microsomes", "setting": "up to 20 µM", "scale": "reference: DMSO", "endpoint": "Emax", "value": "250 ± 7.88%"}
{"Molecule": "CCCCCCCCCCCCCC#CC(=O)Oc1ccc(/C=C/C(=O)/C=C/c2ccc(OC(=O)C#CCCCCCCCCCCCCC)c(OC)c2)cc1OC", "target": "DNA gyrase (Staphylococcus aureus, UniProt P0A0K8+P20831)", "assay": "DNA supercoiling, inhibitor", "endpoint": "minimum inhibitory concentration", "value": "250 µg/mL"}
{"Molecule": "C#CCOc1cccc(-c2cc(=O)c3ccccc3o2)c1", "target": "Cytochrome P450 1A1 (CYP1A1, Homo sapiens, UniProt P04798)", "assay": "EROD activity, mechanism-based inhibitor", "endpoint": "kinact", "value": "0.09 min⁻¹"}
{"Molecule": "Nc1ncnc2c1ncn2[C@H]1C[C@@H]2OP(=O)(O)OC[C@H]3O[C@@H](n4cnc5c(N)ncnc54)C[C@@H]3OP(=O)(O)OC[C@H]2O1", "target": "gdpP, residues 84-659 (Bacillus subtilis, UniProt P37484)", "assay": "substrate, HPLC", "setting": "100 µM, 37 °C, upper limit if undegraded 24 h, together with: enzyme 1 µM", "endpoint": "degradation rate", "value": "≤ 0.001 mol/min/mol enzyme"}
{"Molecule": "CCCCSS(C)(=O)=O", "target": "Gabrg2/GABRB2/Gabra1 (Rattus norvegicus, UniProt P18508+P47870+P62813, C260A/C282A/C312A/C319A/C341A/N289C)", "assay": "covalent modifier, two-electrode voltage clamp", "test system": "Xenopus laevis oocytes", "setting": "0.5 mM, labelled without GABA, together with: GABA EC10", "scale": "reference: before labelling", "endpoint": "GABA current", "value": "increased"}
{"Molecule": "CC(=O)N[C@@H]1[C@@H](O)[C@H](O[C@@H]2O[C@H](CO)[C@@H](O[C@@H]3O[C@H](CO[C@H]4O[C@H](CO)[C@@H](O)[C@H](O)[C@@H]4O)[C@@H](O)[C@H](O[C@H]4O[C@H](CO)[C@@H](O)[C@H](O)[C@@H]4O[C@@H]4O[C@H](CO)[C@@H](O[C@@H]5O[C@H](CO)[C@H](O)[C@H](O)[C@H]5O)[C@H](O)[C@H]4NC(C)=O)[C@@H]3O)[C@H](O)[C@H]2NC(C)=O)[C@@H](CO)O[C@H]1NC(=O)C[C@H](N)C(=O)O", "target": "Agglutinin (Sclerotinia sclerotiorum, UniProt A7XUK7)", "assay": "glycan array", "setting": "concentration not given, pH 7.4, spacer Sp12", "endpoint": "lectin binding fluorescence", "value": "11500 ± 555 RFU"}
{"Molecule": "KQTARKSTGGWW (octanoyl-Lys9)", "target": "Histone deacetylase 8 (HDAC8, Homo sapiens, UniProt Q9BY41)", "assay": "substrate, HPLC", "test system": "peptide", "setting": "1 µM, 1 h, pH 8, 37 °C", "endpoint": "kcat/Km", "value": "139 ± 13 M⁻¹ s⁻¹"}
{"Molecule": "Clc1ccc(Cl)c(-c2c(Cl)ccc(Cl)c2Cl)c1", "target": "Ryanodine receptor 1", "assay": "[3H]ryanodine binding", "test system": "rainbow trout, skeletal muscle microsomes", "endpoint": "EC20", "value": "430 nM"}
{"Molecule": "N[C@H]1C=C(C(=O)O)CCC1=C(F)F", "target": "Ornithine aminotransferase, mitochondrial (OAT, Homo sapiens, UniProt P04181)", "assay": "enzyme activity, inhibitor", "endpoint": "KI (inactivation)", "value": "10000 nM"}
{"Molecule": "Cc1cccc(Oc2ccc(C(=O)N[C@H](CN3CCN(c4cccc(O)c4)[C@@H](C)C3)C(C)C)cc2)c1", "target": "Delta-type opioid receptor (OPRD1, Homo sapiens, UniProt P41143)", "assay": "antagonist", "test system": "CHO", "setting": "together with: DPDPE", "endpoint": "Ke", "value": "131 ± 44 nM"}
{"Molecule": "CCOc1ccccc1S(=O)(=O)N1CC(c2nc(-c3ccc(F)cc3)no2)C1", "target": "KCNMA1 with beta-3 subunit", "test system": "HEK293", "setting": "30 µM", "endpoint": "activity", "value": "inactive"}
{"Molecule": "isotetrandrine", "target": "Heat shock protein HSP 90-alpha, C-terminal domain (HSP90AA1, Homo sapiens, UniProt P07900)", "assay": "binding, zonal affinity chromatography", "setting": "pH 7.4, 25 °C", "endpoint": "retention factor", "value": 13}
{"Molecule": "CC(C)(NC(=O)c1nn(CC2CCC(F)(F)CC2)c2ccccc12)c1cccc(C(N)=O)c1", "target": "CNR1", "assay": "calcium mobilization, agonist", "test system": "CHO-K1 expressing Gαq16", "scale": "reference: CP55,940 maximum", "endpoint": "Emax", "value": "86 ± 5%"}
{"Molecule": "CCOc1ccccc1S(=O)(=O)N1CC(c2nc(-c3ccc(F)s3)no2)C1", "target": "KCNMA1 with beta-3 subunit", "test system": "HEK293", "setting": "30 µM", "endpoint": "activity", "value": "inactive"}
{"note": "For quick reference, copied from above:"}
{"Molecule": "BIM", "target": "Bcl-2-like protein 1 (BCL2L1, Homo sapiens, UniProt Q07817)", "assay": "bacterial surface display flow cytometry", "setting": "value is labelling concentration", "endpoint": "approximate KD", "value": "~10 nM"}
{"Molecule": "Cc1ccc(Nc2ccc3c(c2)C(c2ccccc2F)=NC(C)C(=O)N3)c(C)c1 (stereo not drawn)", "target": "Alpha-2C adrenergic receptor (ADRA2C, Homo sapiens, UniProt P18825)", "assay": "ligand displacement, radioligand", "setting": "10 µM", "endpoint": "inhibition", "value": "5%"}
